Measured values from different studies.
Cell line: OVCAR-4

SMILES = CCCCN1CCN(c2ccc3[nH]c(-c4ccc5[nH]c(-c6ccc(C(F)(F)F)cc6)nc5c4)nc3c2)CC1; test = SRB; conditions = 10 µM, 48 h; endpoint = growth percent; value = -84.2%
SMILES = C#C[C@@]1(O)[C@@H](CO)O[C@@H](n2cc(F)c3c(N)ncnc32)[C@@H]1O; test = SRB; conditions = NCI-60 screen; endpoint = TGI; value = 8.67 µM
SMILES = CCCCN1CCN(c2ccc3[nH]c(-c4ccc5[nH]c(-c6cc(OC)c(OC)c(OC)c6)nc5c4)nc3c2)CC1; test = SRB; conditions = 10 µM, 48 h; endpoint = growth percent; value = 84.4%
SMILES = CCN(CC)c1ccc(C=NNC(=O)CSc2nc3ccccc3c(=O)n2Cc2ccc(S(N)(=O)=O)cc2)c(O)c1; test = NCI five-dose screen; endpoint = TGI; value = > 100 µM
SMILES = CSc1nc(-c2ccc(Cl)cc2)c2c(NC(=O)c3ccccc3)nnc-2[nH]1; test = SRB; conditions = 10 µM, NCI60 single-dose screen; how to read = baseline: untreated; endpoint = cell growth; value = 94.6%
SMILES = CCCN1CCN(c2ccc3[nH]c(-c4ccc5[nH]c(-c6cc(OC)c(OC)c(OC)c6)nc5c4)nc3c2)CC1; test = SRB; conditions = 10 µM, 48 h; endpoint = growth percent; value = 89.9%
SMILES = O=C1NCCc2[nH]c(-c3ccncc3)cc21; test = MTS; conditions = NCI60 panel; endpoint = IC50; value = > 10 µM
SMILES = Cc1cc(C)n(-c2nc(-c3ccc(Cl)cc3)c3c(NC(=O)c4ccccc4)nnc-3[nH]2)n1; test = SRB; conditions = 10 µM, NCI60 single-dose screen; how to read = baseline: untreated; endpoint = cell growth; value = 107%
SMILES = CCCN1CCN(c2ccc3[nH]c(-c4ccc5[nH]c(-c6ccc(OCC)c(OCC)c6)nc5c4)nc3c2)CC1; test = SRB; conditions = 10 µM, 48 h; endpoint = growth percent; value = -59.9%
SMILES = NNc1nc(-c2ccc(Cl)cc2)c2c(NC(=O)c3ccccc3)nnc-2[nH]1; test = SRB; conditions = 10 µM, NCI60 single-dose screen; how to read = baseline: untreated; endpoint = cell growth; value = 99.9%
SMILES = N.N.O=C([O-])C1(C(=O)[O-])CCC1.[Pt+2]; test = cell viability; endpoint = EC50; value = 66.4 µM
SMILES = C#C[C@@]1(O)[C@@H](CO)O[C@@H](n2cc(Br)c3c(N)ncnc32)[C@@H]1O; test = SRB; conditions = NCI-60 screen; endpoint = TGI; value = > 100 µM
SMILES = S=C([S][Au-][P+](CCCCCC[P+]([Au-][S]C(=S)n1cccn1)(c1ccccc1)c1ccccc1)(c1ccccc1)c1ccccc1)n1cccn1; test = cell growth, NCI-60 screen; conditions = ovarian cancer; endpoint = log10 TGI; value = > -4
SMILES = Cc1cc(=O)[nH]n1-c1nc(-c2ccc(Cl)cc2)c2c(NC(=O)c3ccccc3)nnc-2[nH]1; test = SRB; conditions = 10 µM, NCI60 single-dose screen; how to read = baseline: untreated; endpoint = cell growth; value = 105%
SMILES = CCOc1ccc(-c2nc3cc(-c4nc5cc(N6CCN(C)CC6)ccc5[nH]4)ccc3[nH]2)cc1OCC; test = SRB; conditions = 10 µM, 48 h; endpoint = growth percent; value = 7.29%
SMILES = Cc1n[nH]c2nc(-c3ccc(Cl)cc3)c3c(NC(=O)c4ccccc4)nnc-3n12; test = SRB; conditions = 10 µM, NCI60 single-dose screen; how to read = baseline: untreated; endpoint = cell growth; value = 95.4%
SMILES = Cn1cncc1C1=CN(c2ncnc3[nH]cnc23)CCS1; conditions = ovarian cancer; endpoint = TGI; value = > 200 µM

Some of these lines once more:
SMILES = CSc1nc(-c2ccc(Cl)cc2)c2c(NC(=O)c3ccccc3)nnc-2[nH]1; test = SRB; conditions = 10 µM, NCI60 single-dose screen; how to read = baseline: untreated; endpoint = cell growth; value = 94.6%
SMILES = NNc1nc(-c2ccc(Cl)cc2)c2c(NC(=O)c3ccccc3)nnc-2[nH]1; test = SRB; conditions = 10 µM, NCI60 single-dose screen; how to read = baseline: untreated; endpoint = cell growth; value = 99.9%
SMILES = O=C1NCCc2[nH]c(-c3ccncc3)cc21; test = MTS; conditions = NCI60 panel; endpoint = IC50; value = > 10 µM
